Assay results from different studies.
Lines come from different studies, so protocols differ. Numbers after ± are the reported error.

Compound	test	test system	setting	scale	quantity	result
CCC1=C(C)c2cc3[nH]c(cc4nc(c5c6[nH]c(cc1n2)c(C)c6C(=O)C5)[C@@H](CCC(=O)OC)[C@@H]4C)c(C)c3C(C)OCc1cccc([124I])c1 (stereo partly drawn)	–	BALB/c mice with Colon 26 tumours, tumour	24 h	–	tumour uptake	4.61 %ID/g
N=C(N)NCCC[C@@H]1NC(=O)[C@H](CCCCNC(=O)CON=C[C@H](F)[C@@H](O)[C@H](O)[C@H](O)CO)NC(=O)[C@@H](Cc2ccc(O)cc2)NC(=O)[C@H](CC(=O)O)NC(=O)CNC1=O [fluorine-18 labelled]	–	nude mice, U-87 MG xenograft, tumour	intravenous, 1 h	–	tumour uptake	0.95 ± 0.4 %ID/g
N=C(N)NCCC[C@H](NC(=O)[C@@H]1CSSC[C@H](NC(=O)[C@H](Cc2ccc3ccccc3c2)NC(=O)[C@H](CCCNC(=N)N)NC(=O)[C@H](CCCNC(=N)N)NC(=S)Nc2ccc(C[C@H]3CN(CC(=O)O)CCN(CC(=O)O)CCN3CC(=O)O)cc2)C(=O)N[C@@H](Cc2ccc(O)cc2)C(=O)N[C@@H](CCCNC(N)=O)C(=O)N[C@@H](CCCCN)C(=O)N[C@H](CCCCN)C(=O)N2CCC[C@H]2C(=O)N[C@@H](Cc2ccc(O)cc2)C(=O)N[C@@H](CCCNC(=N)N)C(=O)N[C@@H](CCCNC(N)=O)C(=O)N1)C(N)=O [copper-64 labelled]	PET	mice with CHO-CXCR4 tumours, CHO-CXCR4 tumour	100 µCi, 4 h	–	tumour uptake	4.38 ± 0.68 %ID/g
O=C([O][Ti+2][O]C(=O)c1ccc(P(c2ccccc2)c2ccccc2)cc1)c1ccc(P(c2ccccc2)c2ccccc2)cc1.[Cl][Au].[Cl][Au].c1cc[cH-]c1.c1cc[cH-]c1	ICP-MS, measured: gold	NOD.CB17-Prkdc scid/J mice, tumour	dose not given, end of efficacy study	–	tumour concentration	~50 µg/g
O=C([O-])CN1CCN(CC(=O)[O-])CCN(CC(=O)NCCc2ccc3c(c2)C2C=CCC2C(c2cc4c(cc2Br)OCO4)N3)CCN(CC(=O)[O-])CC1.[111In+3] (stereo not drawn)	–	mice with Hec50 tumour xenograft	1 h	baseline: tumour over muscle	tumour to tissue ratio	3.55
N=C(N)NCCC[C@H](NC(=O)[C@@H]1CSSC[C@H](NC(=O)[C@H](Cc2ccc3ccccc3c2)NC(=O)[C@H](CCCNC(=N)N)NC(=O)[C@H](CCCNC(=N)N)NC(=O)CN2CCN(CC(=O)O)CCN(CC(=O)O)CCN(CC(=O)O)CC2)C(=O)N[C@@H](Cc2ccc(O)cc2)C(=O)N[C@@H](CCCNC(N)=O)C(=O)N[C@@H](CCCCN)C(=O)N[C@H](CCCCN)C(=O)N2CCC[C@H]2C(=O)N[C@@H](Cc2ccc(O)cc2)C(=O)N[C@@H](CCCNC(=N)N)C(=O)N[C@@H](CCCNC(N)=O)C(=O)N1)C(N)=O [copper-64 labelled]	PET	mice	1 to 24 h	baseline: CXCR4-positive over CXCR4-negative tumour	tumour uptake ratio	8 to 10
CCCC[C@H](NC(=O)CNC(=O)CNC(=O)CN1CCN(CC(=O)O)CCN(CC(=O)O)CC1)C(=O)N[C@H]1CC(=O)NCCCC[C@@H](C(N)=O)NC(=O)[C@H](Cc2c[nH]c3ccccc23)NC(=O)[C@H](CCCNC(=N)N)NC(=O)[C@@H](Cc2ccccc2)NC(=O)[C@H](Cc2c[nH]cn2)NC1=O [gallium-67 labelled]	–	female C57 mice, B16/F1 melanoma	intravenous, 0.037 MBq, 4 h	baseline: tumour over kidney	tumour to tissue ratio	2.4
C[C@]12CC[C@@H]3c4ccc(OCC(=O)N[C@@H](CCCCNC(=O)CN5CCN(CC(=O)[O-])CCN(CC(=O)[O-])CCN(CC(=O)[O-])CC5)C(=O)O)cc4CC[C@H]3[C@@H]1CCC2=O.[68Ga+3]	–	female nude mice, MCF7 xenograft, tumour	2.5 h	–	tumour washout	16%
CCN(CC)c1ccc2c(-c3ccc(S(=O)(=O)NCCNC(=O)CN4CCN(CC(=O)[O-])CCN(CC(=O)O)CCN(CC(=O)[O-])CC4)cc3S(=O)(=O)[O-])c3ccc(=[N+](CC)CC)cc-3oc2c1.[64Cu+2]	–	athymic nude mice, U-87 MG glioma xenograft	intravenous, 24 h post-injection	–	tumour uptake	5.14 ± 1.5 %ID/g
N=C(N)NCCC[C@H](NC(=O)CON=C[C@H](F)[C@@H](O)[C@H](O)[C@H](O)CO)C(=O)NCC(=O)N[C@@H](CC(=O)O)C(=O)O [fluorine-18 labelled]	–	nude mice, U-87 MG xenograft, tumour	intravenous, 0.5 h	–	tumour uptake	0.94 ± 0.25 %ID/g
CC(C)(C)ONc1nc(Nc2ccnc(C(F)(F)F)c2)nc(-c2cccc(C(F)(F)F)n2)n1	–	female Balb/cA nude mice xenograft	oral, 18.05 mg/kg, half-life	baseline: tumour over plasma	tumour to plasma ratio	2.7 fold
CCCC[C@H](NC(=O)CNC(=O)CNC(=O)CN1CCN(CC(=O)O)CCN(CC(=O)O)CCN(CC(=O)O)CC1)C(=O)N[C@H]1CC(=O)NCCCC[C@@H](C(N)=O)NC(=O)[C@H](Cc2c[nH]c3ccccc23)NC(=O)[C@H](CCCNC(=N)N)NC(=O)[C@@H](Cc2ccccc2)NC(=O)[C@H](Cc2c[nH]cn2)NC1=O [gallium-67 labelled]	–	female C57 mice, B16/F1 melanoma	intravenous, 0.037 MBq, 0.5 h	baseline: tumour over lung	tumour to tissue ratio	8.35

Some of these lines once more:
Compound	test	test system	setting	scale	quantity	result
CCC1=C(C)c2cc3[nH]c(cc4nc(c5c6[nH]c(cc1n2)c(C)c6C(=O)C5)[C@@H](CCC(=O)OC)[C@@H]4C)c(C)c3C(C)OCc1cccc([124I])c1 (stereo partly drawn)	–	BALB/c mice with Colon 26 tumours, tumour	24 h	–	tumour uptake	4.61 %ID/g
N=C(N)NCCC[C@@H]1NC(=O)[C@H](CCCCNC(=O)CON=C[C@H](F)[C@@H](O)[C@H](O)[C@H](O)CO)NC(=O)[C@@H](Cc2ccc(O)cc2)NC(=O)[C@H](CC(=O)O)NC(=O)CNC1=O [fluorine-18 labelled]	–	nude mice, U-87 MG xenograft, tumour	intravenous, 1 h	–	tumour uptake	0.95 ± 0.4 %ID/g
